Published values pooled from the literature.
Each numbered part is a random draw from the data of one study; scales do not carry over between parts.
Chain of UniProt O95819 (whole entry, looked up): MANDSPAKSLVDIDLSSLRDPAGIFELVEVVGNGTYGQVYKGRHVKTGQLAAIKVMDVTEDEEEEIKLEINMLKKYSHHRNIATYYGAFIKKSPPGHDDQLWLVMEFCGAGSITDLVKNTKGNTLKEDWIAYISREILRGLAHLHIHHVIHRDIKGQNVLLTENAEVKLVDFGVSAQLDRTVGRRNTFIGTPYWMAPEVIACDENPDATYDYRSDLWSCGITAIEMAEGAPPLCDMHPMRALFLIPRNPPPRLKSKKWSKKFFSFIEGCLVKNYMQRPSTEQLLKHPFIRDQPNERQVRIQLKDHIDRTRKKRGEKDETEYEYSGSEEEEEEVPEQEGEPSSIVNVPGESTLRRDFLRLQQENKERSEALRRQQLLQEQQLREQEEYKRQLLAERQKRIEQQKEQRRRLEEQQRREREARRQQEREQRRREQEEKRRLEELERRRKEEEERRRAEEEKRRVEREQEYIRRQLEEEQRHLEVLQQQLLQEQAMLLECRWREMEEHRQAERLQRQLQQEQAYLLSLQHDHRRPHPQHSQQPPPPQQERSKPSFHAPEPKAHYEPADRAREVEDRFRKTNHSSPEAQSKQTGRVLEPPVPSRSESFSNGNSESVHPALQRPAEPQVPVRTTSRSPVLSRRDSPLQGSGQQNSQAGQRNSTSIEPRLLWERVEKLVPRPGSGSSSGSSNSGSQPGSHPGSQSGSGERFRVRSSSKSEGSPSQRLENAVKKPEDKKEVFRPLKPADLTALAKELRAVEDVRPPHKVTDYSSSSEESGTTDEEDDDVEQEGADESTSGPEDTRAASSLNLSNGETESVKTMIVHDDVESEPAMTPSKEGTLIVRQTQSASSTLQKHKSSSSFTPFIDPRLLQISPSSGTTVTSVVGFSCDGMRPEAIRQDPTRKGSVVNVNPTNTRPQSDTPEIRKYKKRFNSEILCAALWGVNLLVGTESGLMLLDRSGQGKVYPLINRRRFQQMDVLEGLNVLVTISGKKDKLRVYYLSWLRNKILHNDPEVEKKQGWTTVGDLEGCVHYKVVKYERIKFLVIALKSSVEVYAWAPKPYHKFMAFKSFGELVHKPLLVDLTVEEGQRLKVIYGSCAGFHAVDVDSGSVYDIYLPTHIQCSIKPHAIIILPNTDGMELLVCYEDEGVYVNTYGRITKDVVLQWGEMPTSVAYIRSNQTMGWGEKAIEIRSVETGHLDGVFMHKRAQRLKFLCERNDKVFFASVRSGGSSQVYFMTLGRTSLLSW
Chain of UniProt O95747 (whole entry, looked up): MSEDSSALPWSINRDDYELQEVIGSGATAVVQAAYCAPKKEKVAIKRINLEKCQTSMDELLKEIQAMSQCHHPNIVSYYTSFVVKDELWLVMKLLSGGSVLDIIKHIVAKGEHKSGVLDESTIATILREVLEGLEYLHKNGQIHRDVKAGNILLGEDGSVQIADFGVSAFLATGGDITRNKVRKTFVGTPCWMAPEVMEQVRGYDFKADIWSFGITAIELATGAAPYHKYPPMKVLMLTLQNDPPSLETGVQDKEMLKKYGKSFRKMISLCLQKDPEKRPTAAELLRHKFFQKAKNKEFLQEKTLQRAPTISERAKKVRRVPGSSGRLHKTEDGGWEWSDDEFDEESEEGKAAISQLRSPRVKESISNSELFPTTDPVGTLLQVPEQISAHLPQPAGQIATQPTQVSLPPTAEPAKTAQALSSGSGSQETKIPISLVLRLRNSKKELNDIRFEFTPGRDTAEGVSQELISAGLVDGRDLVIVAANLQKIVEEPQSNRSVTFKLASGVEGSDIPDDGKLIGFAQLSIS
Chain of UniProt Q9Y2K2 (whole entry, looked up): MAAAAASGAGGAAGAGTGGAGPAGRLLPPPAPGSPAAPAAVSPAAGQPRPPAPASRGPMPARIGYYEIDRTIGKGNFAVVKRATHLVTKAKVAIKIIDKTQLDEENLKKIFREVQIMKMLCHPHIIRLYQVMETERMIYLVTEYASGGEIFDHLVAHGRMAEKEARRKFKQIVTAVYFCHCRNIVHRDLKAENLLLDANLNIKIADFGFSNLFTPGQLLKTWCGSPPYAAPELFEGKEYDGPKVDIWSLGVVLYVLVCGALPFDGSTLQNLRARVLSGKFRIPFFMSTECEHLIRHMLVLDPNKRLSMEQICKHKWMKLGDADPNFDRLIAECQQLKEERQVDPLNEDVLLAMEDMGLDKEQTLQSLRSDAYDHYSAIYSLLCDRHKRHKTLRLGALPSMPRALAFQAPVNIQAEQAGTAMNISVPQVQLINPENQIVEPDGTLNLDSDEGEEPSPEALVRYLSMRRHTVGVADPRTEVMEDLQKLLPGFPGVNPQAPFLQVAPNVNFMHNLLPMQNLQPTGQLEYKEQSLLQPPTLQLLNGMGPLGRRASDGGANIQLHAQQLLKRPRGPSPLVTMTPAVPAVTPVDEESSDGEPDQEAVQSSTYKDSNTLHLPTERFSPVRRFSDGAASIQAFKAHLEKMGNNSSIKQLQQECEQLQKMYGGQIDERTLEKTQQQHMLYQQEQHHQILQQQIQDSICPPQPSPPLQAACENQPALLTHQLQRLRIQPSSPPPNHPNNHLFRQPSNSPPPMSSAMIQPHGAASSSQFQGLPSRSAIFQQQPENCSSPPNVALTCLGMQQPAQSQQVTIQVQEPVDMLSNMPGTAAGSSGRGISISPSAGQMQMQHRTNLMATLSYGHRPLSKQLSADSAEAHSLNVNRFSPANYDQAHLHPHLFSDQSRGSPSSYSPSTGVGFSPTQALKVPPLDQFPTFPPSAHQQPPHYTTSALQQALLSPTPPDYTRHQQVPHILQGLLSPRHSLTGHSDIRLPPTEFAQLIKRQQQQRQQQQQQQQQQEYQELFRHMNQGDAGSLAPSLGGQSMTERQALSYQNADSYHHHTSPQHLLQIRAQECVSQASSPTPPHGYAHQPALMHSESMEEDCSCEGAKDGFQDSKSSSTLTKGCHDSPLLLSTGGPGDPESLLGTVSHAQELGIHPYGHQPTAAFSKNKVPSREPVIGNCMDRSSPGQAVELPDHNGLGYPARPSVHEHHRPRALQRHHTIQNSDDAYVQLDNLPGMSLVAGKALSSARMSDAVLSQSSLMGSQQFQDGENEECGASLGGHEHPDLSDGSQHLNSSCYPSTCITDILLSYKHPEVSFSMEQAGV
Chain of UniProt P48736 (whole entry, looked up): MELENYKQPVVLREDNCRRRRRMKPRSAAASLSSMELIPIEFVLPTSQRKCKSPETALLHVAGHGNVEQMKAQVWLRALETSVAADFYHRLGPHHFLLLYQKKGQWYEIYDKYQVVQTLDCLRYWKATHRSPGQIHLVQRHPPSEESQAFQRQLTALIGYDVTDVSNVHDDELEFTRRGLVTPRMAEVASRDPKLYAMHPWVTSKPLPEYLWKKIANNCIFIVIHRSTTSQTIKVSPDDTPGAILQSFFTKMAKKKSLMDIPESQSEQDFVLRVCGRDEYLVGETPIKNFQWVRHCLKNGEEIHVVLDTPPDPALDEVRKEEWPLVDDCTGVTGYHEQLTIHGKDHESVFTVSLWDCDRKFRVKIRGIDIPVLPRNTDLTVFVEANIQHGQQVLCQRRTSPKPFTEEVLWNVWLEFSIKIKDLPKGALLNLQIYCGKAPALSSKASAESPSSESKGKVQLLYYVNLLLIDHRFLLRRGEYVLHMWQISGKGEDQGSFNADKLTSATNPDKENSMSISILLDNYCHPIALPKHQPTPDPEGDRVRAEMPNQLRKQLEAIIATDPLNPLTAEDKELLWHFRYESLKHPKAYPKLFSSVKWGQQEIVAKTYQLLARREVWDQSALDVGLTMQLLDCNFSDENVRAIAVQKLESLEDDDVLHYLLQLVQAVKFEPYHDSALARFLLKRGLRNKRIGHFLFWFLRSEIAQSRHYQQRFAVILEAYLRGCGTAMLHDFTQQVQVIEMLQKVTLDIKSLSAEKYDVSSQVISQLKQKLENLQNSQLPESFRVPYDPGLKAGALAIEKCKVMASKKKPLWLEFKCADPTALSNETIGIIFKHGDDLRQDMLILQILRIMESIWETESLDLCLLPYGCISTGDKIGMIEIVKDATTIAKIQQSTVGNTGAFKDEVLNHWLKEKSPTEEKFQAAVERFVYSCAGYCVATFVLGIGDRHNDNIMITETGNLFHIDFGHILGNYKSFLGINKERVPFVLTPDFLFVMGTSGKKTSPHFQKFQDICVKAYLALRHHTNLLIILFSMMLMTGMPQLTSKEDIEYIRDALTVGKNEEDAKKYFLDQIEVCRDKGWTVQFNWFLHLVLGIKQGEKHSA
Chain of UniProt O14936 (whole entry, looked up): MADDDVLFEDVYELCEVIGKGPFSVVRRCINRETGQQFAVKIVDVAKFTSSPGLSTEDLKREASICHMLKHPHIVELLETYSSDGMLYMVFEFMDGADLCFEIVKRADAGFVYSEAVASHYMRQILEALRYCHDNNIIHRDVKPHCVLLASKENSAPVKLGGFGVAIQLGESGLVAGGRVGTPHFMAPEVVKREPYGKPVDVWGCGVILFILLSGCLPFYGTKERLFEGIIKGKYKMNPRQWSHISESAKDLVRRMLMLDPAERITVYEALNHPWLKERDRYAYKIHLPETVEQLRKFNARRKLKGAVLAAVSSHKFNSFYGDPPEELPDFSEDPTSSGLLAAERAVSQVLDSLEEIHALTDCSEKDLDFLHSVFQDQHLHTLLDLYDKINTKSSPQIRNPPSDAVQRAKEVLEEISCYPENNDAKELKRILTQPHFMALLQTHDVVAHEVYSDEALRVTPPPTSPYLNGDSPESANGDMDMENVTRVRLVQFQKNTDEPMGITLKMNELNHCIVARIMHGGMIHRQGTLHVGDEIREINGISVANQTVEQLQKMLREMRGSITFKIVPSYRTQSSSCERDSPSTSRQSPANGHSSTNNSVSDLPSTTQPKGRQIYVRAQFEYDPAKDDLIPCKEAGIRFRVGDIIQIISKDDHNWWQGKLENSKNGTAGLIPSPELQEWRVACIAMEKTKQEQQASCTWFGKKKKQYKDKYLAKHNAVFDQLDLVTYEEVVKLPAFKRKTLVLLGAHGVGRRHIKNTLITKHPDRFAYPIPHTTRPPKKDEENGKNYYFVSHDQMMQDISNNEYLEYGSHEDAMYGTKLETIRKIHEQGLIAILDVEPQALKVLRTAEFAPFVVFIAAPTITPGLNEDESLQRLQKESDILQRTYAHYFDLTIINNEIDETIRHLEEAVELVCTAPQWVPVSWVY

Sample 1 — observed: enzyme activity; action: inhibitor; tested at: 0.5 µM; baseline: control
Target: NUAK family SNF1-like kinase 1 (NUAK1, Homo sapiens, UniProt O60285)
Target sequence (O60285 1-661): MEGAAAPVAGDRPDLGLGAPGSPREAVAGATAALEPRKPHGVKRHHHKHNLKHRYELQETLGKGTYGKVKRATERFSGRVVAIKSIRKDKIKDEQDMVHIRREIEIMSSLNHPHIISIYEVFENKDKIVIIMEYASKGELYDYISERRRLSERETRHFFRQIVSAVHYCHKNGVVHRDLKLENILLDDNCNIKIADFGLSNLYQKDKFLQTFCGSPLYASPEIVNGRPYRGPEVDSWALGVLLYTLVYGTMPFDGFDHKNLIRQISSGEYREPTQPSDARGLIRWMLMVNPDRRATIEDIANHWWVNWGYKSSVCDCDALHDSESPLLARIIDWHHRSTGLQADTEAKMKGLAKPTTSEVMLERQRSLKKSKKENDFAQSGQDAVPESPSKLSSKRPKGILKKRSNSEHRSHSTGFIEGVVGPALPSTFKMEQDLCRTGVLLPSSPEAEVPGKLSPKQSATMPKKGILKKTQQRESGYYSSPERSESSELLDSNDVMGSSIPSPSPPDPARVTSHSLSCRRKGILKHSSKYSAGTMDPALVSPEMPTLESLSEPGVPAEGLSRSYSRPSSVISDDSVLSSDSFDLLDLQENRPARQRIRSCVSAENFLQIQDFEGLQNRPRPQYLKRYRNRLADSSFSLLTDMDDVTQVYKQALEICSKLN
`Oc1ccc(-c2nc(-c3ccncc3)c(-c3ccc(F)cc3)[nH]2)cc1` gave a remaining activity of 97.3%.
For `Nc1ccc2ncnc(NCCc3ccc(Oc4ccccc4)cc3)c2c1`, the remaining activity was 94.7%.
For `Nc1ncnc2n[nH]c(Nc3ccc(F)cc3)c12`, the remaining activity was 95.5%.
`N#CC(C#N)=C(N)/C(C#N)=C/c1ccc(O)cc1` has a remaining activity of 92.3%.
With `CO[C@H]1C[C@@H]2CC[C@@H](C)[C@@](O)(O2)C(=O)C(=O)N2CCCC[C@H]2C(=O)O[C@H]([C@H](C)C[C@@H]2CC[C@@H](O)[C@H](OC)C2)CC(=O)[C@H](C)/C=C(\C)[C@@H](O)[C@@H](OC)C(=O)[C@H](C)C[C@H](C)/C=C/C=C/C=C/1C` the remaining activity was 101%.
For `CN(C)c1ccc(C=C2C(=O)Nc3ccccc32)cc1`, the remaining activity was 80.4%.
The remaining activity of `O=C1NC(=O)C(c2cn(CCCO)c3ncccc23)=C1c1cnccn1` is reported as 59.4%.
`OCC(O)CCON=C1C(c2c(O)[nH]c3ccccc23)=Nc2ccccc21` (centres unmarked) gave a remaining activity of 2.81%.
For `O=C(CCCc1ccc(-c2ccccc2F)cc1)Nc1ccc(O)cc1`, the remaining activity was 96.4%.
`Cc1cccc(-c2[nH]c(C(C)(C)C)nc2-c2ccc3c(c2)OCO3)n1` gave a remaining activity of 97.3%.
With `COc1ccc(C(=O)Nc2sc3c(c2C(N)=O)CCCC3)cc1OC` the remaining activity was 81.8%.
For `Cn1c2ccccc2c2c3c(c4c5ccccc5n(CCC#N)c4c21)CNC3=O`, the remaining activity was 3.86%.
For `NCCNc1ncc(C(N)=O)c(Nc2cccc(C(F)(F)F)c2)n1`, the remaining activity was 22.6%.
`CCOC(=O)c1c(C)[nH]c(/C=C2\C(=O)Nc3ccccc32)c1C` has a remaining activity of 62.3%.
`O=C(Nc1cccc(Nc2cc(Nc3cccc(C(F)(F)F)c3)ncn2)c1)C1CC1` gave a remaining activity of 102%.
For `Cn1sc(=O)n(Cc2ccccc2)c1=O`, the remaining activity was 102%.

Sample 2 — method: competition with immobilised ligand; tested at: 1 µM
Compound: COc1cccc(CNC(=O)c2nc3scc(COCc4ccc(C(=O)O)cc4)c3c(=O)[nH]2)c1
It gave 71.9% for remaining binding (OXSR1 (Homo sapiens, UniProt O95747); cell-free assay).
For Ribosomal protein S6 kinase alpha-1, C-terminal kinase domain (RPS6KA1, Homo sapiens, UniProt Q15418); cell-free assay: remaining binding read 100%.
For SIK3 (Homo sapiens, UniProt Q9Y2K2); cell-free assay: remaining binding read 63.5%.
It gave 83% for remaining binding (Tyrosine-protein kinase ABL1, phosphorylated (ABL1, Homo sapiens, UniProt P00519, E255K); binding).
For PIK3CG (Homo sapiens, UniProt P48736); cell-free assay: remaining binding read 76.8%.
It gave 92.3% for remaining binding (MAP4K4 (Homo sapiens, UniProt O95819); cell-free assay).
It gave 100% for remaining binding (STK33 (Homo sapiens, UniProt Q9BYT3); cell-free assay).
For CASK (Homo sapiens, UniProt O14936); cell-free assay: remaining binding read 67.3%.

Sample 3 — cell line: A-375; tested at: 100 µM; time: 18 h
For `C=CC1=C(C(=O)O)N2C(=O)[C@@H](NC(=O)/C(=N\OCC(=O)O)c3csc(N)n3)[C@H]2SC1`, the viability was 105%.
`CC(C)(C)C(=O)OCOP(=O)(COCCn1cnc2c(N)ncnc21)OCOC(=O)C(C)(C)C` has a viability of 66.6%.
`NS(=O)(=O)c1cc2c(cc1Cl)NC(C(Cl)Cl)NS2(=O)=O` (centres unmarked) gave a viability of 95.2%.
With `C[N+]1(C)[C@@H]2C[C@@H](OC(=O)C(O)(c3cccs3)c3cccs3)C[C@H]1[C@@H]1O[C@@H]12` the viability was 104%.
For `Cn1nnc(-c2ccc(-c3ccc(N4C[C@H](CO)OC4=O)cc3F)cn2)n1`, the viability was 101%.

Sample 4 — matrix: EL4 tumour; dose: dose not given; baseline: vehicle
SMILES: CC(=O)N[C@@H](Cc1c[nH]c2ccccc12)C(=O)N[C@@H](CCC(=O)C=[N+]=[N-])C(=O)OC(C)C
The “log2 fold change” was -0.45 (item: biliverdin; mouse, EL4 tumour-bearing).
For item: N-acetylasparagine; mouse, EL4 tumour-bearing: “log2 fold change” read 0.0556.
item: methionine sulfone; Mus musculus — “log2 fold change”: -1.72.
item: phenylacetylglycine; mouse, EL4 tumour-bearing — “log2 fold change”: 0.285.
For item: N-acetyltaurine; mouse, EL4 tumour-bearing: “log2 fold change” read -1.
The “log2 fold change” was 0.473 (item: 2'-deoxycytidine; mouse, EL4 tumour-bearing).

Repeated from above (sample 1):
For `Nc1ccc2ncnc(NCCc3ccc(Oc4ccccc4)cc3)c2c1`, the remaining activity was 94.7%.
For `Nc1ncnc2n[nH]c(Nc3ccc(F)cc3)c12`, the remaining activity was 95.5%.
